Experimental data collected from several papers.
Chain of UniProt Q92985 (whole entry, unmodified, looked up): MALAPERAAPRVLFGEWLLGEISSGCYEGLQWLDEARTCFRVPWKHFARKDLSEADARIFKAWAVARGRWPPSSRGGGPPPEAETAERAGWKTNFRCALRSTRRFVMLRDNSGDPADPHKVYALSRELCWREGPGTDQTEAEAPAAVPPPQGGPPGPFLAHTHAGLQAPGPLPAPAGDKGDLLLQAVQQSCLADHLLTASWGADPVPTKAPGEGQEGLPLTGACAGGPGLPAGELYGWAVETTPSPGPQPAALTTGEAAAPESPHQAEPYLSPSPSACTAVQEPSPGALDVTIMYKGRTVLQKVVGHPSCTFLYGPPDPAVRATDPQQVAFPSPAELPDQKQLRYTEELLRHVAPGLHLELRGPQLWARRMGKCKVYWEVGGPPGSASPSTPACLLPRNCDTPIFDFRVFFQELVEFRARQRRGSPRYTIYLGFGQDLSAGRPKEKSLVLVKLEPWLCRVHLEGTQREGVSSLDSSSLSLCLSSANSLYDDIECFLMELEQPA

For `ATACATTG`, the E-score was -0.206 (Histone acetyltransferase KAT6A, winged helix 1, GST fusion (KAT6A, Homo sapiens, UniProt Q92794, residues 1-85); protein binding microarray; double-stranded DNA, one strand shown, in vitro; not given, 8-mer, flanks averaged, mean of 2 arrays, mostly near background; reference: not given, higher = stronger binding).
`GCCTAGCACTCACCATCCTGTATGGAACTGTGCTAGGTCTTGATTCGCTTGACGCTGCTG` — result for “fitted relative affinity”: 1.17 z-score (Interferon regulatory factor 7, full length, phosphomimetic (IRF7, Homo sapiens, UniProt Q92985, residues 1-503, S471D/S472D/S475D/S476D/S477D/S483D/S484D/S487D); protein-binding microarray; double-stranded DNA, one strand shown, in vitro; 2200 nM top, 60-bp whole probe, with: salmon DNA 0.4 mg/ml; reference: random background probes, higher = stronger binding).
The E-score of `CAGACTCA` is reported as -0.113 (Sal-like protein 4, full length isoform B (SALL4, Homo sapiens, UniProt Q9UJQ4-2, residues 1-616); universal PBM; double-stranded DNA, one strand shown, in vitro; not given, 8-mer, flanks averaged, mean of replicates; higher = stronger binding).
For `PhoQ, residues 284 288 289 292 302 303 SQSLSM`, the fold induction was 5.19 (PhoP, residues 12 14 15 18 19 FWNTL (Escherichia coli, UniProt P23836); Sort-seq, item: YFP reporter; E. coli; PhoQ-PhoP variant library, with: 10 µM Mg2+; reference: high Mg2+ state, higher = stronger signaling).

Repeated from above:
For `PhoQ, residues 284 288 289 292 302 303 SQSLSM`, the fold induction was 5.19 (PhoP, residues 12 14 15 18 19 FWNTL (Escherichia coli, UniProt P23836); Sort-seq, item: YFP reporter; E. coli; PhoQ-PhoP variant library, with: 10 µM Mg2+; reference: high Mg2+ state, higher = stronger signaling).
